Measurements from different studies.
Lines come from different studies, so protocols differ. Several values in a cell are separate wells, animals, samples, runs or records. ± marks the error that the study gave.

For CC[C@H]1[C@@H](O)[C@@H]2[C@H](CC[C@]3(C)[C@@H]([C@H](C)CCC(=O)O)CC[C@@H]23)[C@@]2(C)CC[C@@H](O)C[C@@H]12, the plasma triglycerides was 65 ± 7 mg/dL (C57BL/6J mouse, AMLN diet NASH model; dose not given, terminal).
For Cc1cc([C@H]2C[C@H]3[C@@H](C)SC(N)=N[C@@]3(c3ccc(F)cc3F)CO2)on1, the Aβ40 level was 0.55 ng/mL (item: Aβx-40; Mus musculus wild-type, cerebrospinal fluid; subcutaneous, 50 mg/kg, 9 h).
Under “log2 fold change”, N[C@@H](Cc1c[nH]c2ccccc12)C(=O)O is recorded as 0.177 (binding, MIDAS equilibrium dialysis LC-MS; A2AR-BRIL thermostabilized; concentration not given; baseline: no-protein control).
For C[C@H](Oc1ccc(Br)cc1-c1ccon1)C(=O)O, “difference from placebo” read 0.284 kg (maximum voluntary grip contraction, handgrip dynamometry; healthy human; 400 mg, SAD).
For OC(CCN1CCCCC1)(c1ccccc1)C1CC2C=CC1C2 (stereo not shown), “change in EEG Beta2-power Fz-Cz” read 0.4% (resting-state EEG; healthy elderly humans; oral, 4 mg, eyes open, LS mean; baseline: baseline).
CC(CC(=O)O)CC(=O)O: “log2 fold change” -0.376 (binding, MIDAS equilibrium dialysis LC-MS; A2AR-BRIL thermostabilized; concentration not given; baseline: no-protein control).
COc1ccc(F)cc1C(=O)NCc1ccc(-c2nn([C@@H](C)C(F)(F)F)c(N)c2C(N)=O)cc1: “overall response rate” 60% (CLL/SLL patients; dose not given, at least prior PI3K inhibitor).
Nc1nc2c(ncn2[C@@H]2O[C@H](COP(=O)(O)OP(=O)(O)O)[C@@H](OP(=O)(O)OP(=O)(O)O)[C@H]2O)c(=O)[nH]1 — result for “log2 fold change”: 3.42 (SILAC mass spectrometry, item: typA protein; Escherichia coli lysate; concentration not given; baseline: heavy over light).
O=C(O)CCO: “log2 fold change” -0.284 (binding, MIDAS equilibrium dialysis LC-MS; A2AR-BRIL thermostabilized; concentration not given; baseline: no-protein control).
Under “best overall response SD”, COc1cc2cc(-c3ccc(CC(=O)Nc4cc(C(C)(C)C(F)(F)F)no4)cn3)cnc2cc1OC is recorded as 38% (RECIST v1.1; human RET-altered solid tumours; 13 100 mg tablets, phase I).
N#C/C(=C\c1ccccc1)c1ccncc1: “β-elimination rate constant” 0.152 min⁻¹ (pH 7.4).
With C[C@H]1O[C@@H](O[C@H]2CC[C@@]3(C)[C@@H](CC[C@]4(C)[C@@H]3C=C[C@]35OC[C@@]6(CCC(C)(C)C[C@H]63)[C@@H](O)C[C@]54C)[C@]2(C)CO)[C@H](O)[C@@H](O[C@@H]2O[C@H](CO)[C@@H](O)[C@H](O)[C@H]2O)[C@H]1O the adipose area was 11.5% and 13.4% and 15.6% and 13.6% (H&E staining; chronic-plus-binge ethanol mice; dose not given, medium dose).
C[C@H]1C[C@H]2CSC(N)=N[C@@]2(c2nc(NC(=O)c3ccc(OC(F)F)cn3)cs2)CO1: “percent change from baseline” -39.6% (item: Aβx-40; healthy adults, plasma; 40 mg single dose, 4 h post-dose; baseline: placebo).
Cc1coc([C@H]2C[C@H]3[C@@H](CF)SC(N)=N[C@@]3(c3ccc(F)cc3F)CO2)n1 — result for “brain Aβ40 level”: 2.14 ng/g (item: Aβx-40; wild-type mouse, brain; subcutaneous, 80 mg/kg, 7 h).
CC(C)NCC(O)c1ccc(O)c(O)c1 (stereo not shown) gave a sarcomere length of 1.71 µm (ventricular cardiomyocytes, C57BL/6 mouse; dose not given, 0.292 s).
For COc1ccc(-c2cncc(N[C@@H](C)c3cccc(NC(=O)c4cncc(C)c4)c3)n2)cc1OC, “delta delta Ct” read -0.242 (item: rno-miR-369-3p; rat SU5416/hypoxia model, lung; dose not given, unit not given; baseline: SU5416/hypoxia vehicle).
Cc1cnc(N2CC3(CCOCC3)C2)c(C(=O)Nc2ccc(C(=O)N3CCc4cc(C(=O)Nc5c(C)cccc5F)sc4-c4ccccc43)cc2)c1: “inhibition of HMGB1 AUC” 3% (human, RSV infection, nasal wash; dose not given, ITT-I population; baseline: placebo).
For Cc1n[nH]c2ccc(-c3cc(OC[C@@H](N)Cc4ccccc4)cnc3-c3ccoc3)cc12, “log2 fold change” read -1.89 (kinase binding, competitor, MIB/MS competition, item: HRR25; Candida albicans cell lysate; 10 µM; baseline: DMSO).
For Oc1ccc(Br)cc1C=NCCN1CCOCC1, “ferric reducing power” read 22.6% (FRAP; 120 µM).
Under “log2 fold change”, NC(=O)NCCC(=O)O is recorded as -0.711 (binding, MIDAS equilibrium dialysis LC-MS; A2AR-BRIL thermostabilized; concentration not given; baseline: no-protein control).
N#Cc1ccn2c(-c3ccncc3)c(-c3ccc(F)cc3)nc2c1: “log2 fold change” -0.16 (kinase binding, competitor, MIB/MS competition, item: AKL1; Candida albicans cell lysate; 1 µM; baseline: DMSO).
For N#Cc1ccc2c(c1)[C@H]1CCCN(C(=O)c3ccc4[nH]cnc4c3)[C@H]1C2, “change from baseline” read 4 mmHg (item: systolic blood pressure; human; 20 mg once daily, day 28, adjusted mean; baseline: placebo).
COc1cc2nccc(Oc3ccc(NC(=O)c4cc5c(n(-c6ccccc6)c4=O)CCCC5=O)nc3)c2cc1OC has a hazard ratio of 0.332 (logrank; MOLM-13 luc/gfp xenograft, mice; diet, 0.013% in feed; baseline: treated over control).
C[C@@H]1CCC[C@H](n2cnc(-c3cc(Cl)ccc3-n3cc(Cl)nn3)cc2=O)c2cc(ccn2)-c2c(cnn2C(F)F)NC1=O: “concentration for aPTT prolongation” over 40 µM (rat plasma; IC2× aPTT, STA-PTT reagent).
For CSCCNc1nc(SCCC(F)(F)F)nc2c1ncn2[C@@H]1O[C@H](COP(=O)(O)OP(=O)(O)C(Cl)(Cl)P(=O)(O)O)[C@@H](O)[C@H]1O, “patients with IPA above threshold” read 5.3% (platelet aggregation, light transmittance aggregometry; human, platelet-rich plasma; dose not given, 4 to 6 h, IPA above 80 %, added: ADP 20 µM; baseline: patients).
For C=CCn1c(=O)c2cnc(Nc3ccc(N4CCN(C)CC4)cc3)nc2n1-c1ccc2c(n1)[C@@](O)(CC)CC2, the tumour volume was 68.3% (BALB/c nude mouse, BxPC-3 xenograft; oral, 60 mg/kg, 1 d on 6 d off ×4, day 28; baseline: vehicle).
CC(C)[C@H](C(=O)Nc1ccc(C(=O)NO)cc1)c1ccccc1 — result for “tumour volume change”: 52.5% (volumetric MRI; human, right vagal schwannoma; dose not given, day 835; baseline: baseline).
N[C@H](CCC(=O)O)C(=O)O — result for “log2 fold change”: 0.0887 (binding, MIDAS equilibrium dialysis LC-MS; A2AR-BRIL thermostabilized; concentration not given; baseline: no-protein control).
For C[C@@H](O)CCOC(=O)C[C@@H](C)O, the plasma NEFA was 0.2 mM (human; oral drink, dose not given, 240 min post dose, median, all participants).
Under “GIF level change”, N#CCC1CCN(c2nc(Nc3ccc(N4CCC(O)CC4)cc3)c3c(=O)[nH]ncc3n2)CC1 is recorded as 1.39 (Olink multiplex; human, serum; 80 mg, day 15, unit not given; baseline: baseline).
Under “ferric reducing power”, O=C1O[C@H]([C@@H](O)CO)C(O)=C1O is recorded as 68.8% (FRAP; 160 µM).
Under “log2 fold change”, O=c1ccn([C@H]2C[C@H](O)[C@@H](COP(=O)(O)O)O2)c(=O)[nH]1 is recorded as -0.0521 (binding, MIDAS equilibrium dialysis LC-MS; A2AR-BRIL thermostabilized; concentration not given; baseline: no-protein control).
N#Cc1ccc2c(c1)[C@H]1CCCN(C(=O)c3ccc4[nH]cnc4c3)[C@H]1C2 — result for “fasting plasma glucose change”: 8% (human; 360 mg, day 15, adjusted mean; baseline: baseline, placebo-corrected).
For Cn1cc(Nc2nccc(-c3ccc4c(c3)CN(C3COC3)CC[C@H]4NC(=O)c3cn(C(C)(C)C)nn3)n2)cn1, “pathway activation z-score” read 3.87 (item: CD40 signalling; mouse splenic B cells, mouse; 30 mg/kg, IgD-activated B cells in vivo; baseline: vehicle, direction not given).
For Cn1cc(-c2ccc(-c3cncc(Cl)c3N3CCC4(CCNC4=O)CC3)cc2)cn1, “log2 fold change” read 2.86 (COLO 205; gene expression, microarray, item: CCRL2 mRNA; concentration not given, 6 h; baseline: untreated cells).
The IC50 of COc1cccc2c1C(=O)c1c(O)c3c(c(O)c1C2=O)C[C@@](O)(C(=O)CO)C[C@@H]3O[C@H]1C[C@H](N)[C@H](O)[C@H](C)O1 is reported as 23.7 nM (organoid viability, CellTiter-Glo 3D; sample B colorectal cancer organoid, human; 6 days).
For Cc1cc(-c2nc(C(=O)Nc3cc4oc(N5CCOCC5)nc4nc3N3CC[C@@H](O)C3)co2)ccn1, “brain tumour burden” read “decreased” (mouse, B16-F10 melanoma brain metastasis; 100 mg/kg, day 12, treatment day 7).
O=C(CO)[C@@H](O)[C@H](O)[C@H](O)[C@H](O)COP(=O)(O)O: “log2 fold change” -0.135 (binding, MIDAS equilibrium dialysis LC-MS; A2AR-BRIL thermostabilized; concentration not given; baseline: no-protein control).
CC(C)C[C@H](NC(=O)C[C@H](O)[C@H](CC(C)C)NC(=O)[C@H](Cc1c[nH]cn1)NC(=O)CNC(=O)[C@@H](NC(=O)[C@H](C)NC(=O)[C@H](Cc1c[nH]c2ccccc12)NC(=O)[C@H](CCC(N)=O)NC(=O)[C@@H](Cc1ccccc1)NC(=O)COCCOCCNC(=O)CCC(C(=O)O)N1CCN(CC(=O)O)CCN(CC(=O)O)CCN(CC(=O)O)CC1)C(C)C)C(N)=O (stereo partly shown) [lutetium-177 labelled] gave a tissue uptake of 0.34 ± 0.06 %ID/g (BALB/c nu/nu mice, liver; intravenous, 500 pmol, 1 h, added: PA 300 µg).
For O=C(O)CNC(=O)Cc1ccccc1, the sarcomere length was 1.71 µm (ventricular cardiomyocytes, C57BL/6 mouse; dose not given, 0.312 s).
The Aβ40 level of Cc1cc([C@H]2C[C@H]3[C@@H](CF)SC(N)=N[C@@]3(c3ccc(F)cc3F)CO2)on1 is reported as 0.2 ng/mL (item: Aβx-40; Mus musculus wild-type, cerebrospinal fluid; subcutaneous, 100 mg/kg, 3 h).
For NC(=O)c1cnc2[nH]ccc2c1N[C@@H]1[C@@H]2CC3C[C@H]1C[C@@](O)(C3)C2, “change from baseline” read -3.8% (flow cytometry, item: CD8+ naive T cells; Japanese healthy subjects, peripheral blood; oral, 100 mg twice daily, day 7).
Cc1noc(C)c1-c1cc(C(O)(c2ccccn2)c2ccccn2)c2nc(C3CC3)[nH]c2c1 has a maximum inhibition of 46% (item: CCR2 expression; human, peripheral blood; 4 mg, day 8, 1604 study).
CCCCCN1C[C@H](O)[C@@H](O)[C@H](O)[C@@H]1CO — result for “genomic disease score”: 0.44 (RNA sequencing, item: 327 disease-specific DEGs; Hexb-/- mouse, hippocampus; 30 mg/kg/day; direction not given).
For CC1(C)OCCn2c1nc1c(N3CCOCC3)nc(-c3cnc(N)nc3)nc12, “GSEA enrichment score” read 0.207 (RNA sequencing, item: HALLMARK_TGF_BETA_SIGNALING; MB002 tumour; concentration not given; baseline: vehicle, direction not given).
c1ccc(-c2n[nH]cc2-c2ccnc3ccccc23)nc1 — result for “log2 fold change”: 1.24 (kinase binding, competitor, MIB/MS competition, item: SCH9; Candida albicans cell lysate; 100 nM; baseline: DMSO).
O=P(O)(O)C(Cl)(Cl)P(=O)(O)O gave a distance travelled of 35 m and 33 m and 28 m and 29 m (open field test; UT+/+ and UT-/- mice, sham; 23000 µg/mL).
O=C(CO)N[C@H]1[C@H]([C@H](O)[C@H](O)CO)O[C@](O)(C(=O)O)C[C@@H]1O — result for “log2 fold change”: -0.155 (binding, MIDAS equilibrium dialysis LC-MS; A2AR-BRIL thermostabilized; concentration not given; baseline: no-protein control).
The plasma C4 of CCCCC1(CCCC)CN(c2ccccc2)c2cc(SC)c(OCC(=O)N[C@@H](C(=O)NCC(=O)O)c3ccccc3)cc2S(=O)(=O)C1 is reported as 55.5 ng/mL (item: 7α-hydroxy-4-cholesten-3-one; human, plasma; 20 mg once daily, day 5).

Repeated from above:
Cc1noc(C)c1-c1cc(C(O)(c2ccccn2)c2ccccn2)c2nc(C3CC3)[nH]c2c1 has a maximum inhibition of 46% (item: CCR2 expression; human, peripheral blood; 4 mg, day 8, 1604 study).
For C[C@@H](O)CCOC(=O)C[C@@H](C)O, the plasma NEFA was 0.2 mM (human; oral drink, dose not given, 240 min post dose, median, all participants).
For Oc1ccc(Br)cc1C=NCCN1CCOCC1, “ferric reducing power” read 22.6% (FRAP; 120 µM).
Under “log2 fold change”, NC(=O)NCCC(=O)O is recorded as -0.711 (binding, MIDAS equilibrium dialysis LC-MS; A2AR-BRIL thermostabilized; concentration not given; baseline: no-protein control).
O=C(O)CCO: “log2 fold change” -0.284 (binding, MIDAS equilibrium dialysis LC-MS; A2AR-BRIL thermostabilized; concentration not given; baseline: no-protein control).
For COc1ccc(-c2cncc(N[C@@H](C)c3cccc(NC(=O)c4cncc(C)c4)c3)n2)cc1OC, “delta delta Ct” read -0.242 (item: rno-miR-369-3p; rat SU5416/hypoxia model, lung; dose not given, unit not given; baseline: SU5416/hypoxia vehicle).
